Assay results pooled from the literature.
Protocols differ between the studies behind these lines. ± gives the spread as reported.

system | setting | scale | remaining compound [%] | Compound
CD-1 mouse liver microsomes | 2 µM, 60 min, added: NADPH | – | > 90 | C=C(NC(=O)c1csc(-c2nc3c(cc2O)-c2nc(cs2)C(=O)NC(C(C)O)C(=O)NC(=C(C)OC)c2nc(cs2)C(=O)NC2c4nc(cs4)C(=O)NC(COC(=O)c4c5c6c(cccc6n4O)COC(=O)C(OC4CC(C)(O)C(N(C)C)C(C)O4)C2OC5)c2nc-3cs2)n1)C(N)=O (centres unmarked)
mouse liver microsomes | concentration not given, 0.08333 h, pH 7.4 | – | 100 | O=C(NC1CCC(F)(F)CC1)C(c1cncnc1)N(C(=O)C(F)Cl)c1ccc(OC(F)(F)F)cc1 (centres unmarked)
human liver microsomes | 2 µM, 0 min, pH 7.5, without ABT | – | 100 | CN(Cc1cc(C2CC2)on1)C(=O)c1cccc(-c2ccc(F)cc2)c1
mouse liver microsomes | 60 min, added: NADPH | – | 14.7 | [2H]C1([2H])CC[C@@H](C[C@@H](C#N)NC(=O)[C@@H]2[C@@H]3[C@H](CN2C(=O)[C@@H](NC(=O)C(F)F)C(C)(C)C)C3(C)C)C(=O)N1
human liver microsomes | 1 µM, 60 min, without cofactors | – | 92 | CC(C)(C)[C@H](NC(=O)c1ccc(Oc2ccc(C(=O)N[C@H]3CCCC[C@@H]3O)cc2)cc1)C(=O)NCCN1CCCC1
human liver microsomes | 775.87 nM, 24 h, 4 °C | – | 99.6 | CCCCN1C(=O)c2cccc3c(N4CC[N+](C)(C5OC(C(=O)O)C(O)C(O)C5O)CC4)ccc(c23)C1=O (centres unmarked)
human liver microsomes | 1.5 µM, 60 min, pH 7.4, mean of replicates | reference: 0 min | 92.7 | [2H]C(Cc1c[nH]c2ccccc12)(Nc1ccccc1)C(=O)O (centres unmarked)
human liver microsomes | concentration not given, 0.25 h, pH 7.4 | – | 29.5 | C[C@](C(=O)NC1CCC(F)(F)CC1)(c1cncnc1)N(C(=O)[C@H](F)Cl)c1ccc(OC(F)(F)F)cc1
rat liver microsomes | 15 min | – | 94.6 ± 5.4 | Cc1cc(C)nc(NC(=S)N2CCN(c3ccc(C(F)(F)F)cn3)CC2)c1
mouse liver microsomes | concentration not given, 0.1667 h, pH 7.4 | – | 80 | O=C(NC1CCC(F)(F)CC1)C(c1cncnc1)N(C(=O)C(F)Cl)c1ccc(-c2cncs2)cc1 (centres unmarked)
aqueous buffer with 500 µM DTT | 48 h | – | > 95 | Cc1cc(C)nc(NC(=S)N2CCN(Cc3ccc(C(F)(F)F)cc3)CC2)c1

Excerpt of the above:
system | setting | scale | remaining compound [%] | Compound
CD-1 mouse liver microsomes | 2 µM, 60 min, added: NADPH | – | > 90 | C=C(NC(=O)c1csc(-c2nc3c(cc2O)-c2nc(cs2)C(=O)NC(C(C)O)C(=O)NC(=C(C)OC)c2nc(cs2)C(=O)NC2c4nc(cs4)C(=O)NC(COC(=O)c4c5c6c(cccc6n4O)COC(=O)C(OC4CC(C)(O)C(N(C)C)C(C)O4)C2OC5)c2nc-3cs2)n1)C(N)=O (centres unmarked)
